Measured values collected from several papers.
Each line is one published result; not all experiments were run side by side. Numbers after ± are the reported error.
Organism: HIV-1

Substance	assay	test system	conditions	EC50
N=C(N)NCCC[C@H](NC(=O)[C@H](CCCNC(=N)N)NC(=O)[C@H](CCCNC(=N)N)NC(=O)[C@H](CCCNC(=N)N)NC(=O)[C@H](CCCNC(=N)N)NC(=O)[C@H](CCCNC(=N)N)NC(=O)[C@H](CCCNC(=N)N)NC(=O)CCCCCCCCCCCCC(=O)OC[C@@H]1O[C@H](n2cc(F)c(N)nc2=O)CS1)C(=O)O	viral replication, MAGI single-round infection	BaL, R5-tropic	cell-free virus	1.5 µM
O=C(CN1CCN(S(=O)(=O)c2ccc([N+](=O)[O-])cc2)CC1=O)N[C@@H](Cc1cc(F)cc(F)c1)c1nc2ccccc2c(=O)n1-c1ccc(S(=O)(=O)N2CCOCC2)cc1	viral replication, MTT	MT-4, IIIB	–	0.16 ± 0.09 µM
CC(=O)OCC(COP(=O)(N[C@@H](C)C(=O)OCc1ccccc1)Oc1ccccc1)OCn1cnc2c(Cl)nc(N)nc21 (stereo partly drawn)	viral replication	MT-4	72 h	2 µM
CC(=NNC(=O)CN1c2c(-c3ccccc3)n[nH]c2-c2ccccc2S1(=O)=O)c1nccs1	viral replication	PBMC	–	> 100 µM
O=C(CN1c2c(n[nH]c2-c2cccc(Cl)c2)-c2ccccc2S1(=O)=O)NN=Cc1ccc(Cl)cc1Cl	viral replication	PBMC	–	19.6 µM
c1ccc(SSc2ccccn2)nc1	virucidal activity	CEM-SS, IIIB	20 min, virions pretreated then washed	2.26 µM
COc1cc(Cl)ccc1Oc1cc(Cl)cc(C#N)c1	viral replication	MT-2, IIIB wild type	–	9.9 µM
O=C(CN1c2c(n[nH]c2-c2cccc(Cl)c2)-c2ccccc2S1(=O)=O)NN=Cc1c(Cl)cccc1Cl	viral replication	PBMC	–	12.5 µM
Cc1ccc(N2C(=O)CCC2(CN)c2ccc(OCc3ccccc3)cc2)cc1 (stereo not drawn)	viral replication	human PBMC, LAI	–	10.8 µM
COc1ccc(-n2c([C@H](Cc3ccccc3)NC(=O)CN3CCN(S(=O)(=O)c4ccc([N+](=O)[O-])cc4)CC3=O)nc3cc(S(C)(=O)=O)ccc3c2=O)cc1	viral replication, MTT	MT-4, IIIB	–	2.77 ± 0.5 µM
O=C(CN1c2c(-c3ccccc3)n[nH]c2-c2ccccc2S1(=O)=O)NN=Cc1cccs1	viral replication	PBMC	–	70.2 µM
Cc1ccc(S(=O)(=O)N2C(=O)CSC2c2ccc([N+](=O)[O-])cc2)cc1 (stereo not drawn)	viral cytopathicity, MTT	MT-4, IIIB	–	> 125 µM
Cc1ccc(N2C(=O)CCC2(C#N)c2ccc(OC(C)C)cc2)cc1 (stereo not drawn)	viral replication	human PBMC, LAI	–	37.3 µM
delavirdine	viral replication	MT-2, IIIB wild type	–	0.053 µM
Cc1c2c(nn1CC(=O)NCc1ccccc1Cl)-c1ccccc1S(=O)(=O)N2C	viral replication	PBMC	–	< 20 µM
CC(=NNC(=O)CN1c2c(-c3ccccc3)n[nH]c2-c2ccccc2S1(=O)=O)c1ccc[nH]1	viral replication	PBMC	–	> 100 µM
Cc1ccc(N2C(=O)CCC2(CN)c2ccccc2)cc1 (stereo not drawn)	viral replication	human PBMC, LAI	–	32.6 µM
N#C/C=C/c1cc(Cl)cc(Oc2ccc(Cl)cc2OCCn2ccc(=O)[nH]c2=O)c1	viral replication	T cells, IIIB, wild type	–	2.4e-05 µM
CC(=NNC(=O)CN1c2c(-c3ccccc3)n[nH]c2-c2ccccc2S1(=O)=O)c1ccsc1	viral replication	PBMC	–	24.3 µM
O=C(CN1CCN(S(=O)(=O)c2ccc([N+](=O)[O-])cc2)CC1=O)N[C@@H](Cc1ccccc1)c1nc2ccccc2c(=O)n1-c1ccc(S(=O)(=O)N2CCS(=O)(=O)CC2)cc1	viral replication, MTT	MT-4, IIIB	–	12.6 ± 18.7 µM
NC(=O)CCNC(=O)c1ccccc1S	viral replication	human monocytes/macrophages, subtype B 91US005, CCR5-tropic	–	2.5 µM
N=C(N)NCCC[C@H](NC(=O)[C@H](CCCNC(=N)N)NC(=O)[C@H](CCCNC(=N)N)NC(=O)[C@H](CCCNC(=N)N)NC(=O)[C@H](CCCNC(=N)N)NC(=O)[C@H](CCCNC(=N)N)NC(=O)[C@H](CCCNC(=N)N)NC(=O)CCCCCCCCCCCCC(=O)OC[C@@H]1O[C@H](n2ccc(N)nc2=O)CS1)C(=O)O	viral replication, MAGI single-round infection	IIIB, X4-tropic	cell-free virus	8.7 µM
COc1ccc(-n2c([C@H](Cc3cc(F)cc(F)c3)NC(=O)CN3CCN(S(=O)(=O)c4ccc([N+](=O)[O-])cc4)CC3=O)nc3cc(Br)ccc3c2=O)cc1	viral replication, MTT	MT-4, IIIB	–	0.99 ± 0.25 µM
COC(=O)CNc1c(C(=O)NCc2ccc(F)cc2F)c(=O)n(O)c2ncccc12	viral infectivity, single-round infection	HOS, integrase wild type	–	0.0038 ± 0.0012 µM
COc1ccc(-n2c([C@H](Cc3ccccc3)NC(=O)CN3CCN(S(=O)(=O)c4ccc([N+](=O)[O-])cc4)CC3=O)nc3cc(Cl)ccc3c2=O)cc1	viral replication, MTT	MT-4, IIIB	–	2.16 ± 0.26 µM
O=C(CN1c2c(n[nH]c2-c2cccc(Cl)c2)-c2ccccc2S1(=O)=O)NN=Cc1cccc(Cl)c1	viral replication	PBMC	–	> 10 µM
Cc1ccc(S(=O)(=O)N2C(=O)CSC2c2ccccc2F)cc1 (stereo not drawn)	viral cytopathicity, MTT	MT-4, IIIB	–	111 µM

Substance	assay	test system	conditions	EC50
Cc1ccc(-c2ccc(/C=C3\SC(=S)N(CCc4ccccc4)C3=O)o2)cc1C(=O)O	viral replication	MT-2	–	< 0.1 µM
Cc1ccc(S(=O)(=O)N2C(=O)CSC2c2ccccc2[N+](=O)[O-])cc1 (stereo not drawn)	viral cytopathicity, MTT	MT-4, IIIB	–	> 125 µM
O=C(CN1c2c(n[nH]c2-c2cccc(Cl)c2)-c2ccccc2S1(=O)=O)NN=Cc1cccc(Br)c1	viral replication	PBMC	–	> 10 µM
CC(=NNC(=O)CN1c2c(-c3ccccc3)n[nH]c2-c2ccccc2S1(=O)=O)c1cc(C)oc1C	viral replication	PBMC	–	> 100 µM
CC[C@H](C)CN(C[C@@H](O)[C@H](Cc1ccccc1)NC(=O)[C@@H](NC(C)=O)[C@@H](C)CC)S(=O)(=O)c1ccc2ncsc2c1	viral replication, Monogram susceptibility	clade A patient isolate	–	0.0023 µM
CN(C)c1ccc(C=NNC(=O)CN2c3c(n[nH]c3-c3cccc(Cl)c3)-c3ccccc3S2(=O)=O)cc1	viral replication	PBMC	–	5.8 µM
CC[C@H](C)[C@@H]1NC(=O)[C@@H]2CSSC[C@@H]3NC(=O)[C@H](C(C)C)NC(=O)[C@H](CCCCN)NC(=O)[C@H](CCCNC(N)=O)NC(=O)[C@H](Cc4ccc(O)cc4)NC(=O)[C@@H]4CSSC[C@H](NC(=O)[C@H](CCCNC(N)=O)NC(=O)[C@H](CCCNC(=N)N)NC(=O)[C@H](Cc5ccc(O)cc5)NC(=O)[C@H](CO)NC(=O)CNC(=O)[C@@H]5CSSC[C@H](NC(=O)[C@H](CC(=O)O)NC(=O)[C@H](CO)NC(=O)[C@H](CC(=O)O)NC(=O)[C@H](CCCNC(=N)N)NC(=O)[C@H](CCCNC(=N)N)NC(=O)[C@H](CSSC[C@H](NC1=O)C(=O)N[C@@H](CCCNC(=N)N)C(=O)NCC(=O)N[C@@H](CC(N)=O)C(=O)NCC(=O)N[C@@H](Cc1ccc(O)cc1)C(=O)N5)NC(=O)[C@H](CCCNC(=N)N)NC(=O)[C@H](CCC(N)=O)NC(=O)[C@H](CC(C)C)NC(=O)[C@H]([C@@H](C)CC)NC(=O)[C@H](CCCCN)NC(=O)[C@@H]1CCCN1C3=O)C(=O)N1CCC[C@H]1C(=O)NCC(=O)N[C@@H](C)C(=O)N2)C(=O)N[C@@H](CCCNC(=N)N)C(=O)NCC(=O)N1CCC[C@@H]1C(=O)N[C@@H](CCCNC(=N)N)C(=O)N[C@@H](CCCNC(=N)N)C(=O)N[C@@H](Cc1ccc2ccccc2c1)C(=O)N4	viral replication	CXCR4-tropic	–	0.002 ± 0.0003 µM
O=C(O)c1cc(-c2ccc(/C=C3\SC(=S)N(CCc4ccccc4)C3=O)o2)ccc1Cl	viral replication	MT-2	–	< 0.1 µM
Cc1cc(C#N)cc(C)c1Oc1nc(Nc2ccc(C#N)cc2)nc(N)c1Br	viral replication	MT4, IIIB wild type	–	0.00313 ± 0.000902 µM
Nc1ccc(S(=O)(=O)N2CCN(CC(=O)N[C@@H](Cc3ccccc3)c3nc4ccccc4c(=O)n3-c3ccc(S(=O)(=O)N4CCS(=O)(=O)CC4)cc3)C(=O)C2)cc1	viral replication, MTT	MT-4, IIIB	–	1.98 ± 0.96 µM
O=C(CN1c2c(n[nH]c2-c2cccc(Cl)c2)-c2ccccc2S1(=O)=O)NN=Cc1ccc(F)cc1	viral replication	PBMC	–	9.2 µM
CC(=NNC(=O)CN1c2c(-c3ccccc3)n[nH]c2-c2ccccc2S1(=O)=O)c1cccs1	viral replication	PBMC	–	< 20 µM
N#Cc1ccc(Oc2cc(Cl)ccc2Cl)c(OCCc2ccncc2)c1	viral replication	MT-2, IIIB wild type	–	0.76 µM
O=c1cc(-c2ccc(O)c(O)c2)oc2cc(O[C@@H]3O[C@H](CO)[C@@H](O)[C@H](O)[C@H]3O)cc(O)c12	viral replication, refers to: p24 Gag	PBMCs from 3 donors, NL4.3	day 6	2.6 ± 0.8 µM
Cc1ccc(S(=O)(=O)N2C(=O)CSC2c2ccccc2Cl)cc1 (stereo not drawn)	viral cytopathicity, MTT	MT-4, IIIB	–	> 125 µM
Cc1cc(/C=C/C#N)cc(C)c1Oc1ccc(N)c(Nc2ccc(C#N)cc2)n1	viral replication	TZM-bl, NL4-3	–	≤ 0.0007 µM
CC(=NNC(=O)CN1c2c(-c3ccccc3)n[nH]c2-c2ccccc2S1(=O)=O)c1cc(C)sc1C	viral replication	PBMC	–	> 100 µM
O=C(CN1c2c(n[nH]c2-c2cccc(Cl)c2)-c2ccccc2S1(=O)=O)NN=Cc1ccc([N+](=O)[O-])cc1	viral replication	PBMC	–	7.5 µM
COC(=O)[C@H](C)NP(=O)(OCCOCn1cnc2c(=O)[nH]c(N)nc21)Oc1cccc2ccccc12 (stereo partly drawn)	viral replication	–	–	0.1 to 0.6 µM
CC(=NNC(=O)CN1c2c(-c3ccccc3)n[nH]c2-c2ccccc2S1(=O)=O)c1ccc(C)o1	viral replication	PBMC	–	75.7 µM
O=c1[nH]cnc2c1ncn2[C@H]1CC[C@@H](CO)O1	viral cytopathicity, MTT	MT-4, IIIB	–	18 µM
COc1ccc(CNC(=O)Cn2nc3c(c2C)N(C)S(=O)(=O)c2ccccc2-3)cc1	viral replication	PBMC	–	< 20 µM
Cc1cc(C#N)cc(C)c1Oc1nc(Nc2ccc(C#N)cc2)nc(N)c1Br	viral replication, MTT	MT-4, IIIB, wild type	–	0.004 µM
COc1ccc(C=NNC(=O)CN2c3c(n[nH]c3-c3cccc(Cl)c3)-c3ccccc3S2(=O)=O)c(OC)c1OC	viral replication	PBMC	–	< 5 µM
Cc1ccc(S(=O)(=O)N2C(=O)CSC2c2ccc(C(C)C)cc2)cc1 (stereo not drawn)	viral cytopathicity, MTT	MT-4, IIIB	–	> 125 µM
COc1ccc(-n2c([C@H](Cc3ccccc3)NC(=O)CN3CCN(S(=O)(=O)c4ccc(N)cc4)CC3=O)nc3cc(F)ccc3c2=O)cc1	viral replication, MTT	MT-4, IIIB	–	0.82 ± 0.15 µM
Nc1c(C(=O)NCc2ccc(F)cc2F)c(=O)n(O)c2ncc(CCCCCCOC(=O)c3ccccc3)cc12	viral infectivity, single-round infection	HOS, integrase wild type	–	0.0048 ± 0.0016 µM

A few entries again:
Substance	assay	test system	conditions	EC50
CC[C@H](C)CN(C[C@@H](O)[C@H](Cc1ccccc1)NC(=O)[C@@H](NC(C)=O)[C@@H](C)CC)S(=O)(=O)c1ccc2ncsc2c1	viral replication, Monogram susceptibility	clade A patient isolate	–	0.0023 µM
Cc1cc(C#N)cc(C)c1Oc1nc(Nc2ccc(C#N)cc2)nc(N)c1Br	viral replication, MTT	MT-4, IIIB, wild type	–	0.004 µM
O=C(CN1c2c(n[nH]c2-c2cccc(Cl)c2)-c2ccccc2S1(=O)=O)NN=Cc1c(Cl)cccc1Cl	viral replication	PBMC	–	12.5 µM
c1ccc(SSc2ccccn2)nc1	virucidal activity	CEM-SS, IIIB	20 min, virions pretreated then washed	2.26 µM
Cc1ccc(-c2ccc(/C=C3\SC(=S)N(CCc4ccccc4)C3=O)o2)cc1C(=O)O	viral replication	MT-2	–	< 0.1 µM
CC(=NNC(=O)CN1c2c(-c3ccccc3)n[nH]c2-c2ccccc2S1(=O)=O)c1cc(C)sc1C	viral replication	PBMC	–	> 100 µM
CN(C)c1ccc(C=NNC(=O)CN2c3c(n[nH]c3-c3cccc(Cl)c3)-c3ccccc3S2(=O)=O)cc1	viral replication	PBMC	–	5.8 µM
O=c1[nH]cnc2c1ncn2[C@H]1CC[C@@H](CO)O1	viral cytopathicity, MTT	MT-4, IIIB	–	18 µM
COC(=O)[C@H](C)NP(=O)(OCCOCn1cnc2c(=O)[nH]c(N)nc21)Oc1cccc2ccccc12 (stereo partly drawn)	viral replication	–	–	0.1 to 0.6 µM
